Assay results of several laboratories.
A part holds a random share of what one study measured. Positions count from the first letter of the parent shown.

Block 1 — target: CCNA2, cyclin fold, Cln2 fusion (human); technique: yeast growth competition, sequencing; matrix: yeast; setting: strong parent motif; baseline: not given; reading: higher = stronger binding
Starting sequence: SCAPER docking peptide (human); SNARRSLNFGGST; partner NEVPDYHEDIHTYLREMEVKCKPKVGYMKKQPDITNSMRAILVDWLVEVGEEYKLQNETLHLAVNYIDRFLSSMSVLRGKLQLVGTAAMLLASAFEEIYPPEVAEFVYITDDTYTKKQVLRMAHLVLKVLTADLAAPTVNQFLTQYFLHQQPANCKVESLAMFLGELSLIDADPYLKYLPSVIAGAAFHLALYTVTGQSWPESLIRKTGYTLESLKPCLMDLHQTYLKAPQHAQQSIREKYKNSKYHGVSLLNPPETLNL
| Variant | normalised enrichment score |
| --- | --- |
| SNARRMLNFGGST [S6M] | 6.57 |
| SNARRSLNFGMST [G11M] | 6.38 |
| SNARRSLNFGGKT [S12K] | 6.17 |
| SNADRSLNFGGST [R4D] | 0.162 |
| SNARRSLNFFGST [G10F] | 6.04 |
| SVARRSLNFGGST [N2V] | 5.83 |
| PNARRSLNFGGST [S1P] | 6.5 |
| SNARRSLNNGGST [F9N] | -0.3 |
| LNARRSLNFGGST [S1L] | 6.34 |
| SNARRSLNFGHST [G11H] | 5.97 |
| SNARRSYNFGGST [L7Y] | 1.05 |
| SNARRSLNMGGST [F9M] | 3.62 |
| SNARRSLNFTGST [G10T] | 6.2 |
| WNARRSLNFGGST [S1W] | 6.98 |
| FNARRSLNFGGST [S1F] | 6.75 |
| SNARRSLNFGDST [G11D] | 6.62 |

Block 2 — technique: RNA Bind-n-Seq; form: RNA; matrix: in vitro; concentration: 200 nM; setting: whole 134-nt RNA, ends assumed; with: 150 mM KCl; baseline: input library; reading: higher = stronger binding
Target: Fragile X messenger ribonucleoprotein 1, C-terminal low-complexity region (Fmr1, Mus musculus, UniProt P35922)
| Strand | log2 enrichment |
| --- | --- |
| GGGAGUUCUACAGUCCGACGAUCGCAGGAAGUAAAAACAAAUGGAAAUGCUUCGGAUAGUGGCAGGGGUGGGGAUUGCUAAGGAAAGGGUGGGAUGGGAGUGGGUAAAGAGUUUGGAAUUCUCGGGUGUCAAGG | 0.271 |
| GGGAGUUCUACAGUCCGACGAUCAGUCCUGUGCUACACAUCGUAUGUACCGAAUCGGUUUUUUUGGAAAAAAAGGAAAGGAAAGUAUUAUGUUACGCCGUUCGGAUCUGCACUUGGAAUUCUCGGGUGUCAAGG | -1.26 |
| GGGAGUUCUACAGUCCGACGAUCGUCCUGUGCUACACAUCGUAUGUACCGAAUCGGGAAAGGGUUUUUUUGGGAAAAAGGGAAAGUAUUAUGUUACGCCGUUCGGAUCUGCACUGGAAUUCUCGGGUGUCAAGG | -0.376 |
| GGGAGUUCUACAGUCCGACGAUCUUAUGGAGUUUGGCCCUGAGGACAUGCUGCUGGGCAUGGAUGAGGCUGAAGAUGAUGAGGACCUGGAGGCUGAGCUGCUGGCUCUCACAGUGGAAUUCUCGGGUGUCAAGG | -0.837 |
| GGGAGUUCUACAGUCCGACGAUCGUCCUGUGCUACACAUCGUAUGUACCGAAUCGGGAAAAAGGGUUUUUUUGGGAAAGGGAAAGUAUUAUGUUACGCCGUUCGGAUCUGCACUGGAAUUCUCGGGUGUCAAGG | -0.421 |
| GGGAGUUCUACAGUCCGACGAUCAGUCCUGUGCUACACAUCGUAUGUACCGAAUCGGGGUUUUGGUUUUGGGUUUUGGGGAAAGUAUUAUGUUACGCCGUUCGGAUCUGCACUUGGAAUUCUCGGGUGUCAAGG | 0.236 |
| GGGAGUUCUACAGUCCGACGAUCUGUGCUACACAUCGUAUGUACCGAAUCGGAAAAAAAGGGGAAAAAAAGGGGAAAAAAAGGGGAAAGUAUUAUGUUACGCCGUUCGGAUCUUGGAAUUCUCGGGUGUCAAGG | -0.166 |
| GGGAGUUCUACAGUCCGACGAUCCCUCAAGUCCUGUGCUACACAUCGUAUGUACCGAAUCGGGUUGGUUGGUUGGAAAGUAUUAUGUUACGCCGUUCGGAUCUGCACUUCCAGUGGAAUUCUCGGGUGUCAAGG | 0.167 |
| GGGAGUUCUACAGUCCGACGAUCCUGUGCUACACAUCGUAUGUACCGAAUCGGGUUUUUUUGGGUUUUUUUGGGUUUUUUUGGGGAAAGUAUUAUGUUACGCCGUUCGGAUCUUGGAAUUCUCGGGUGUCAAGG | -0.174 |
| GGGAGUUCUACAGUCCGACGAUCAAGUCCUGUGCUACACAUCGUAUGUACCGAAUCGGGUUUUUGGGAAAAAGGGUGGGAAAGUAUUAUGUUACGCCGUUCGGAUCUGCACUUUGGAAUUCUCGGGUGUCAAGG | 0.807 |

Block 3 — technique: protein binding microarray; form: double-stranded DNA, one strand shown; matrix: in vitro; concentration: not given; baseline: not given; reading: higher = stronger binding
Target: Histone acetyltransferase KAT6A, winged helix 1, GST fusion (KAT6A, Homo sapiens, UniProt Q92794, residues 1-85)
Setting: 8-mer, flanks averaged, mean of 2 arrays, mostly near background
Target sequence (chain): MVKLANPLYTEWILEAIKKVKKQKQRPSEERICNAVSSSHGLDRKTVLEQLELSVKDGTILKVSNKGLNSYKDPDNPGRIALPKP
| Strand | E-score |
| --- | --- |
| AACATGCC | 0.217 |
| TCGCAGAA | -0.0809 |
| AGGAAACG | -0.155 |
| ACGATCGG | 0.147 |
| CCGGAGTC | 0.19 |
| CTCGTATA | -0.08 |
| CGTCGAAG | 0.0426 |
| ACTAAGAC | -0.0468 |
| GTTCCGGA | -0.0644 |
| GGTTACTA | 0.0727 |
| TAGAACAA | -0.177 |
| CTGACCCC | -0.0469 |
| TACTGCGA | -0.0897 |
| GGTCGTAA | -0.0159 |
| AGATCGCG | 0.203 |
| AAGGACTT | -0.199 |
| ATCATTTG | -0.185 |
| TAATGTCA | -0.0981 |
| AGTAGTTG | -0.0519 |
| CTAGATGC | -0.0372 |
| CCTTATAC | 0.029 |
| CTCATTCA | -0.0339 |
| CCACGGGA | 0.261 |
| AACTCGAT | -0.112 |
| GGCTCGAC | 0.0609 |

Block 4 — technique: EMSA with sequencing; form: double-stranded DNA, one strand shown; matrix: in vitro; concentration: 10 and 20 nM; baseline: negative control set to 0; reading: higher = stronger binding
Target: Hepatocyte nuclear factor 3-alpha (Foxa1, Mus musculus, UniProt P35582, residues 1-468, full length assumed)
Setting: whole designed probe, mean of two concentrations, ends assumed
Target sequence (chain): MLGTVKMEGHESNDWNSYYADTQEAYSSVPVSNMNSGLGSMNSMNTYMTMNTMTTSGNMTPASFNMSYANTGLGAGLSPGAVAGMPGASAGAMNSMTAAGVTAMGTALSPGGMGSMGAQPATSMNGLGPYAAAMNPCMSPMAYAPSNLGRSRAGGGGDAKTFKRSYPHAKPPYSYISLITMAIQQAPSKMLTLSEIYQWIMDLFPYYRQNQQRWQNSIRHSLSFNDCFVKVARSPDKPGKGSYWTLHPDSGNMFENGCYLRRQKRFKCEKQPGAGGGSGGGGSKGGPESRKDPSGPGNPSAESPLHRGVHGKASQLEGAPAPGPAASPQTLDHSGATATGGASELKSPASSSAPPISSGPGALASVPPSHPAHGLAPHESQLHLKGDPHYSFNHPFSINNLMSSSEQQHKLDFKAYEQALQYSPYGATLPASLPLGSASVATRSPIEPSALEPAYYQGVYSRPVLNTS
| Strand | normalised bound fraction [ratio] |
| --- | --- |
| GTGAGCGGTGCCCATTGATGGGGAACTTCTACTCCAGTTCCAGAAAAGTTATGGAAGTCTCAGTTCCTGTGTGTGCCATCACTTTAGCCTCCAGGAAGCTATCTCTTAGTCTCTCCTACTGTAAACATGTCTCCCTGAGTCACCACAGCATCTGTTGTTTCTAGGTGAAGGACTAATACAAATAACAGGGAGGCGCCTGGCATCTGGCCACCTGAACACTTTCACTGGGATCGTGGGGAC | 0.282 |
| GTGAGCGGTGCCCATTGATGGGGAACTCTTTCACTCAAGTGGTATATCCCACAGCCCTAAAGAAGCAAGGGAAATAAGAATTAGAACTAGACATCCCAGGAGACAAAGAATTCAACAAAGCAAACATTAACCAATCCCTTCACACTTCCTGCCTATTTACAGAAAATCTCTCTGGCTCAGGCCGGGCAGTGAGTTCATTTATTTCAACAAAATCAAAGATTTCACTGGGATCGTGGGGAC | 0.364 |
| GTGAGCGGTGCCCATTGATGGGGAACTAGTTCTTTCTTTTGTTTCCACCTTCTTGGATTCATCAAGTATTTTTTAGTATTCCATTTTATCTCATCTGTTATCTTTTGCTGTATTATTTGAAATTACTTTTGGGATTACAATATGCATCCTTAATTTAGCATGGTCTACTTGAAATTAATAACATACTACTTTGTTGTATAATGTAAGAATTTTACTAATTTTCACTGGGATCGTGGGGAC | 0.0464 |
| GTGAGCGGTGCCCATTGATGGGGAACGCGGCGCCTGGCTCTGCGAGTCGGAGCTGCCACAGCCCAGCTGCATCTGTGCACTCAGGCAGAGGCTGTCAAGGTCTGGGAGGCCTTAGTTCCCTGTTTACTCTTATTATCTCTGAGGAAATGTCTCCATGCTTGGAAGGCCCTTGAAAGAGGATACGTCGATGGGAAACTTCTCAGAGGAAGCCTGCTGATGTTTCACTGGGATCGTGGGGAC | 0.108 |
| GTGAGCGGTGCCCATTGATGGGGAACATCTTCCCCCTCTTCCTTGCCCCACCAGCTCACCTACGGGGGTTATTTGCAGATAGGAAAATAAATAAAGCCGGCATTCGTTAACGCAGTTCACGCGCATACTGCTGTTTGCTCTGCATGAATCATGGTCCTTACGCGACGCCAGGCTCCGGGAGAGCAAAGCACCGTGTCAGGCGCATGATCCGGGGTGGCCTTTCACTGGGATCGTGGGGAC | 0.36 |
| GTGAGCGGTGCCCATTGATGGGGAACCCATCTCAGCTGAGGGTACTATCATCCACCCTGTGGCCACATCCAGGAATGTGTGTATCACCTGGGCTCTGAGGATGACATCAGCTCTTCTAAGTCAACAGAATGTCGGGTCTGTTCTAAAAGTCTCATCTGACAAGGAGATCTTTAAGGCTTTACTCCCTTAAAGGCTTTACTCCCATCATGATGGGATAACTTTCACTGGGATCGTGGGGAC | 0.181 |
| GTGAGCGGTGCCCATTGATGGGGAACATCTTCCCCCTCTTCCTTGCCCCACCAGCTCACCTTCCCGGGTTATTTGCACAAAGGAAAATAAATAAAGCCGGCATTCGTTAACCCTCTTCACGCGCATACTGCTGTTTGCTCTGCATCTAACATGGTCCTTACGCGACGCCAGGCTCCGGGAGAGCAAAGCACCGTGTCAGGCGCATGATCCGGGGTGGCCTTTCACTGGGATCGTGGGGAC | 0.38 |
| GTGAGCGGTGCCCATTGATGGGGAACAAGTCCAAGGTTCTTAGAGGCTTACTGAATGGCTTAGTCATCAACCTGTAGGCAATAATTAATGTGACTCCTACAATATCTCACTCCAACAAAGTCATTTAACTTTTGTGGGTGTTTGTATTAGCTAAGTAAAGGGCTTTTTGTTTTCTAACTTATCTTTGATCTTCTTGGTTGGGAGACCAAACAACATATATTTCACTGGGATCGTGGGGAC | 0.163 |

Repeated from above (block 2):
| Strand | log2 enrichment |
| --- | --- |
| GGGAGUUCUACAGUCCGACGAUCCCUCAAGUCCUGUGCUACACAUCGUAUGUACCGAAUCGGGUUGGUUGGUUGGAAAGUAUUAUGUUACGCCGUUCGGAUCUGCACUUCCAGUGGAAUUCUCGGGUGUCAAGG | 0.167 |
| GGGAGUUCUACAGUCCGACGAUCAGUCCUGUGCUACACAUCGUAUGUACCGAAUCGGUUUUUUUGGAAAAAAAGGAAAGGAAAGUAUUAUGUUACGCCGUUCGGAUCUGCACUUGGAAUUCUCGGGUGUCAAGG | -1.26 |
| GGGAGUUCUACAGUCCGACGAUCGUCCUGUGCUACACAUCGUAUGUACCGAAUCGGGAAAAAGGGUUUUUUUGGGAAAGGGAAAGUAUUAUGUUACGCCGUUCGGAUCUGCACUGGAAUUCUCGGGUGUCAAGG | -0.421 |
| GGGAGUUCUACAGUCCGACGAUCAGUCCUGUGCUACACAUCGUAUGUACCGAAUCGGGGUUUUGGUUUUGGGUUUUGGGGAAAGUAUUAUGUUACGCCGUUCGGAUCUGCACUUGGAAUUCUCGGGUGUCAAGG | 0.236 |
| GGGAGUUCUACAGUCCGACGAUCUGUGCUACACAUCGUAUGUACCGAAUCGGAAAAAAAGGGGAAAAAAAGGGGAAAAAAAGGGGAAAGUAUUAUGUUACGCCGUUCGGAUCUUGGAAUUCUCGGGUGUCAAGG | -0.166 |
| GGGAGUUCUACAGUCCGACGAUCUUAUGGAGUUUGGCCCUGAGGACAUGCUGCUGGGCAUGGAUGAGGCUGAAGAUGAUGAGGACCUGGAGGCUGAGCUGCUGGCUCUCACAGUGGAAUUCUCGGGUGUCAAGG | -0.837 |
| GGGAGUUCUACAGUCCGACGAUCGUCCUGUGCUACACAUCGUAUGUACCGAAUCGGGAAAGGGUUUUUUUGGGAAAAAGGGAAAGUAUUAUGUUACGCCGUUCGGAUCUGCACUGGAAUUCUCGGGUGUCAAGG | -0.376 |
